Assay results from different studies.
Each numbered part is a random draw from the data of one study; scales do not carry over between parts. Substitutions count along the parent as printed.

Block 1
Target: TAR DNA-binding protein 43, full length, His tag (TARDBP, Homo sapiens, UniProt Q13148, residues 1-414)
Technique: RNA Bind-n-Seq
Molecule type: RNA
Matrix: in vitro
Concentration: 20 nM
Notes: 6-mer, flanks averaged, single round
With: 150 mM LiCl
Relative to: input library
Direction: higher = stronger binding
Sequence	6-mer enrichment (R)
CCCGUU	1.01
AGGAGA	0.983
UUUAUA	1.12
GUCCGC	0.922
CUUAAU	0.935
UCAACC	0.844
UCAAGU	0.901
CGCUAU	0.897

Block 2
Target: Phosphate system positive regulatory protein PHO4, full length, GST-tagged (PHO4, Saccharomyces cerevisiae, UniProt P07270, residues 1-312)
Technique: competition protein-binding microarray
Molecule type: double-stranded DNA, one strand shown
Matrix: in vitro
Concentration: 2 µM
Notes: whole 60-bp probe, lowest competitor level
With: Cbf1 competitor, 0.05 µM
Direction: higher = stronger binding
All sequences stand within: … GTCTTGATTCGCTTGACGCTGCTG
Construct (chain): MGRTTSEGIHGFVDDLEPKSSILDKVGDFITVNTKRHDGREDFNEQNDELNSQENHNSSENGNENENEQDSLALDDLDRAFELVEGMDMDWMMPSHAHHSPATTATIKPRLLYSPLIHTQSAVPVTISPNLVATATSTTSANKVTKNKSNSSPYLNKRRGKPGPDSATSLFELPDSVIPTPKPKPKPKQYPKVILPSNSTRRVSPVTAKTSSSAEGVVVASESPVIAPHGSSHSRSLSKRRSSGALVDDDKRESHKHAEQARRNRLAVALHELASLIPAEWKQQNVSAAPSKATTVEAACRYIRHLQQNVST
Sequence	fluorescence intensity [a.u.]
GTTACAGATCTCCTACACGTTACATGTTCCAAAGTA	8180
CCCGTTAGAATCCATCACGTAACCTGGTGGCGCTTT	4160
AAATTACTAAGTTGTGGTGTGGGTGACGCCGTATGA	5180
GTCTTGTCTCATTAACACGTGTTTTTCCCCACTTCA	16700
CTAACGAAGGTTTTTCACGTGCCGTACAAGCCAAGT	15500
TTATATCAACCGTATGGCGTGCTTTAGCTGCAATAA	6480
ACTACGAATTTTTCATTCGTGACTCGAAAAACCTAG	4150
CGTCAGCAAAGGGGACCCGTGATGGAGGCGGCCGGG	5980

Block 3
Target: OGT, full length, His-tagged (human)
Technique: phage display, sequencing
Matrix: in vitro
Concentration: 1 µg OGT
Notes: single substitutions, 15-mer displayed peptide, unchanged parent 19.6
Relative to: input library
Direction: higher = stronger binding
Parent: peptide; TAPFYPPAYQIQVFK
Substitution	fold enrichment [fold]
T1F	19.5
K15T	10.2
F4Y	19
P7N	1.16
A8W	3.15
Q10Y	1.25
A8F	13.9
I11Q	0.668

Mixed results
Parent: PafA, mature enzyme, eGFP fusion (Elizabethkingia meningoseptica, UniProt Q9KJX5); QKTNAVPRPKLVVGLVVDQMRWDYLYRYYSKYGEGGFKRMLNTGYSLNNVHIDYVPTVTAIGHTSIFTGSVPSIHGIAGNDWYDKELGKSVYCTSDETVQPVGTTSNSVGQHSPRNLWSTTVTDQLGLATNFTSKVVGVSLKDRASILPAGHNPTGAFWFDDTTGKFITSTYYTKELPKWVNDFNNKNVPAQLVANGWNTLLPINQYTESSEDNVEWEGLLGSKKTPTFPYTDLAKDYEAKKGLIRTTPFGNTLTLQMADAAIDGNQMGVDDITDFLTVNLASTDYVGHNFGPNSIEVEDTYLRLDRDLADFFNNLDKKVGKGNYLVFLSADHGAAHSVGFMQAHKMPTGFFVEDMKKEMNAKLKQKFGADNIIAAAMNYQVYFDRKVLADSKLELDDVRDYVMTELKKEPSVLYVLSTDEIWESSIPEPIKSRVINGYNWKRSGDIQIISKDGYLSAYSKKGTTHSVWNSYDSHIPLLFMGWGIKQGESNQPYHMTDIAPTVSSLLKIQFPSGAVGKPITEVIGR
Substitution	target	assay	system	setting	how to read	measurement	value
K408V	tungstate, free oxyanion	microfluidic competitive inhibition	in vitro, cell-free expressed	not given, derived from inhibition constants, unchanged parent 2230 nM	lower = stronger binding	oxyanion analog dissociation constant	3.04 µM

A few entries again (block 3):
Substitution	fold enrichment [fold]
A8W	3.15
